Measured values of several laboratories.
Protocols differ between the studies behind these lines. Values joined by “and” are separate records of one study, mostly repeats; a detail may differ. ± gives the spread as reported.

COC(=O)[C@@]1(C(C)C)C=C(C(=O)Nc2cccc(C(=O)Nc3ccc(Nc4nccc(-c5cccnc5)n4)c(C)c3)c2)C(=O)CC1 — compound remaining (rat, plasma; 1 µM, 120 min): 71.2%
CNc1nc(N)nc2c1ncn2C1OC(CO)C(O)C1(C)F (centres unmarked) — Cmax, arithmetic mean (healthy adult humans, plasma; oral, 550 mg once daily, day 6, fasted, given alone): 945 ng/mL
[123I]c1ccc2nc(-c3ccc(-n4ccnn4)nc3)cn2c1 — tracer uptake (male Wistar rat, stomach; intravenous, 4 MBq, 14 h): 0.059 %ID/g
CCN(CC)CC#CCNc1ccnc2cc(Cl)ccc12 — revertants per well (Salmonella typhimurium; mini-Ames test; TA1535; 1000.0 µg/well, without S9): 3
COCC1CN(C2CCN(c3cc(OC)c(Nc4ncc(Br)c(Nc5ccc6c(c5P(C)(C)=O)OCCO6)n4)cc3C)CC2)C1 — AUC (human, plasma; oral, 90 mg, multiple doses, patients): 21200 ng·h/mL
CC(=O)N[C@@H](Cc1ccccc1)C(=O)N[C@@H](CC(C)C)C(=O)NCC(=O)N[C@H](C(=O)N[C@@H](CC(C)C)C(=O)N[C@@H](C)C(=O)N[C@@H](CC(C)C)C(=O)N[C@@H](CC(C)C)C(=O)NCC(=O)N[C@@H](Cc1ccc(O)cc1)C(=O)N[C@@H](CC(C)C)C(=O)N[C@@H](C)C(=O)N[C@H](C(=O)N[C@@H](CCCNC(=N)N)C(=O)N1CCC[C@H]1C(=O)N[C@@H](Cc1ccccc1)C(=O)N[C@@H](CC(C)C)C(=O)N1CCC[C@H]1C(=O)N[C@@H](CCCCN)C(=O)N[C@@H](CCCCN)C(=O)N[C@@H](CCCCN)C(=O)N[C@@H](CCC(N)=O)C(=O)N[C@@H](CCC(N)=O)C(=O)N[C@@H](CCCCN)C(N)=O)C(C)C)C(C)C — cleaved to intact ratio (LC-MS; DOPC/DOPS vesicles with trypsin; 10 µM, 12 h, pH 7.2): 0.2 ± 0.1
CC[C@H](C)[C@@H]1NC(=O)[C@H](Cc2ccc(O)cc2)NC(=O)CCCSC[C@@H](C(=O)N(CC(=O)N[C@@H](CC(C)C)C(=O)NCC(N)=O)Cc2ccc(F)cc2)NC(=O)[C@H](CC(N)=O)NC(=O)[C@H](CCC(N)=O)NC1=O — serious adverse events (human; intranasal, 200 µg single dose): 0%
O[C@@H]1[C@@H](O)[C@H](n2cc(COc3ccc(-c4nncnn4)cc3)nn2)O[C@H](C[18F])[C@H]1O — tumour to blood ratio (PET imaging; BALB/c nude mouse, LS174T xenograft, tumour, heart as blood; intravenous, 1 h, added: CC49-TCO 72 h before; reference: tumour over heart): 0.8
Cc1ccc2c(C#N)ccc(O)c2n1 — pKa (capillary electrophoresis): 7.6
Cc1nn(-c2nc3c(F)cc(F)cc3s2)c(O)c1C(c1ccc(C(F)(F)F)cc1)c1c(C)nn(-c2nc3c(F)cc(F)cc3s2)c1O — dose-normalised Cmax (ICR mouse, plasma; intravenous, 5 mg/kg): 4330 kg·ng/mL/mg and 1940 kg·ng/mL/mg and 2550 kg·ng/mL/mg
O=C(Nc1cnccc1-c1ccc([18F])cc1)c1ccnc(NC(=O)C2CC2)c1 — mean SUV (ex vivo gamma counting; FVB/NJ mice, both sexes, caudate nucleus; intravenous, 120 min, added: tariquidar 15 mg/kg iv): 0.25
Cc1cc(C)n(CCN(CCN)CCCCCCNC(=O)[C@@H](N)Cc2c[nH]cn2)n1.[99Tc+].[C-]#[O+].[C-]#[O+].[C-]#[O+] — tumour-to-tissue ratio (BALB/c nude mice A549 xenograft; intravenous, 24 h; reference: tumour over bone): 7.6
CC(C)OCCOCc1ccc(OCC(O)CN(N=O)C(C)C)cc1 (centres unmarked) — fold change (duplex sequencing, item: mutation frequency; NMRI mouse, liver; oral, 845 mg/kg/day, 4 weeks; reference: vehicle): 4.17
C=C(NC(=O)c1csc(-c2nc3c(cc2O)-c2nc(cs2)C(=O)NC(C(C)O)C(=O)NC(=C(C)OC)c2nc(cs2)C(=O)NC2c4nc(cs4)C(=O)NC(COC(=O)c4c5c6c(cccc6n4O)COC(=O)C(OC4CC(C)(O)C(N(C)C)C(C)O4)C2OC5)c2nc-3cs2)n1)C(N)=O (centres unmarked) — Vz/F (Sprague-Dawley rat, both sexes, plasma; intravenous infusion, 6 mg/kg, multiple doses, day 1): 24.3 L/kg
C=CC(=O)Nc1cc(Nc2nccc(-c3cn(C)c4ccccc34)n2)c(OC)cc1N(C)CCNC — remaining compound (human, plasma; 10 d, -80 °C, high QC level): 103%
COc1cccc(OC)c1-c1cc(C(=O)NC2(C(=O)O)C3CC4CC(C3)CC2C4)nn1-c1ccc(C(=O)N(C)CCOCCN(C)C(=O)[C@H](CCCCNC(=O)[C@H](CC(C)C)NC(=O)C2OC2C(=O)O)NC(=O)CN2CCN(CC(=O)[O-])CCN(CC(=O)[O-])CCN(CC(=O)[O-])CC2)cc1C(C)C.[177Lu+3] (mixture of isomers) — tumour-to-heart ratio (mouse, HT-29 xenograft; 168 h post injection, biodistribution; reference: tumour over heart uptake): 8.4
C=Cc1c(C)c2cc3nc(c(CC(=O)OCCOCCOCCOC)c4[nH]c(cc5nc(cc1[nH]2)C(C)=C5CC)c(C)c4C(=O)O)[C@@H](CCC(=O)OCCOCCOCCOC)[C@@H]3C — compound loss (LC-MS; methanol-water 9:1; 4 h, pH 2.0): 57%
CCCCCCCOc1ccc(CC[C@](N)(CO)COP(=O)(O)O)cc1C(F)(F)F — half-life (healthy human males, plasma; oral, 0.25 mg, day 21): 404 h
O=C1NC2(CC2)COc2ncc(F)cc2[C@H]2COCCN2c2ccn3ncc1c3n2 — revertant colonies (Salmonella typhimurium; Ames test; TA100; 50 µg/plate, 48 h, added: rat liver S9): 82 ± 6 revertants/plate
CC(=O)N[C@H](CC(=O)O)C(=O)N[C@H](Cc1c[nH]c2ccccc12)C(=O)N[C@H](Cc1ccccc1)C(=O)N[C@H](CCCCN)C(=O)N[C@H](C)C(=O)N[C@H](Cc1ccccc1)C(=O)N[C@H](Cc1ccc(O)cc1)C(=O)N[C@H](CC(=O)O)C(=O)N[C@H](CCCCN)C(=O)N[C@@H](C(=O)N[C@H](C)C(=O)N[C@H](CCC(=O)O)C(=O)N[C@H](CCCCN)C(=O)N[C@H](Cc1ccccc1)C(=O)N[C@H](CCCCN)C(=O)N[C@H](CCC(=O)O)C(=O)N[C@H](C)C(=O)N[C@H](Cc1ccccc1)C(N)=O)C(C)C — plasma concentration (human, plasma; oral, dose not given, 1 h post-dose, day 13): 90 ng/mL
NS(=O)(=O)c1c(F)c(F)c(SCCO)c(F)c1F — pKa (sulfonamide group): 8.14
CC(C)(c1cc(Br)c(O)c(Br)c1)c1cc(Br)c(O)c(Br)c1 — milk fat partition ratio (cow whole milk; 200 nM; reference: milk fat over skim milk): 22.7
CC(=O)N([O-])CCCCCNC(=O)CCC(=O)N([O-])CCCCCNC(=O)CCC(=O)N([O-])CCCCCN.[89Zr+4] — tracer uptake (mouse, heart; 4 h): 0.05 %ID/g
CC[C@H](C)/C=C/C=C/C=C/C(O)=C/C(=O)C(Cl)(Cl)Cl — hydrate fraction (UPLC-MS; PBS with DMSO; 100 µM, 1 h, pH 7.4, room temperature, 1% DMSO): 2.2 ± 0.1%
COC1CN([C@H]2CC[C@H]([C@@]3(C)Oc4c(Cl)cc(C(=O)NCc5c(SC)cc(C)[nH]c5=O)c(C)c4O3)CC2)C1 — log2 fold change (RNA-seq, item: NAALAD2 mouse homolog; mouse, HT-1376 xenograft, whole blood; dose not given; reference: vehicle): 0.527
CC(C)C[C@H](NC(=O)[C@H](Cc1ccc(O)cc1)NC(=O)[C@@H](CCCNC(=N)N)NC(=O)[C@@H](CO)NC(=O)[C@H](Cc1ccccc1)NC(=O)[C@H](CC1CCCCC1)NC(=O)[C@H](CC(=O)O)NC(=O)CN1CCN(CC(=O)O)CCN(CC(=O)O)CCN(CC(=O)O)CC1)C(=O)N[C@@H](Cc1c[nH]c2ccccc12)C(=O)N[C@@H](CO)C(=O)O [copper-64 labelled] — activity concentration (human, pancreas; concentration not given, 24 h): 3200 Bq/mL and 1340 Bq/mL and 1590 Bq/mL and 742 Bq/mL and 1550 Bq/mL and 1300 Bq/mL
O=C(NS(=O)(=O)c1cccs1)c1cc2ccccc2n1Cc1ccc(Br)c2ccccc12 — body weight (KM mouse, chronic hyperuricaemia model; dose not given, day 13): 31.6 g and 33.2 g and 28 g and 31.4 g and 35.4 g
CC(C)C[C@H](NC(=O)[C@@H](CCCCNC(=O)[C@@H](Cc1ccccc1)NC(=O)CCCCCCCNC(=O)CN1CCN(CC(=O)O)CCN(CC(=O)O)CCN(CC(=O)O)CC1)NC(=O)[C@H](Cc1ccc(O)cc1)NC(=O)[C@H](CO)NC(=O)[C@H](Cc1c[nH]c2ccccc12)NC(=O)[C@H](Cc1c[nH]cn1)NC(=O)[C@@H]1CCC(=O)N1)C(=O)N[C@@H](CCCNC(=N)N)C(=O)N1CCC[C@H]1C(=O)NCC(N)=O [indium-111 labelled] — tumour-to-tissue ratio (male athymic nude mice, DU-145 prostate cancer xenograft, tumour; intravenous, 0.037 MBq, 1 h; reference: tumour over muscle): 3.26
Cc1ncsc1-c1ccc(C(C)NC(=O)C2CC(O)CN2C(=O)C(NC(=O)CCCCCCCCCCN2CCCC(Nc3ncc(Cl)c(Nc4ccccc4S(=O)(=O)C(C)C)n3)C2)C(C)(C)C)cc1 (centres unmarked) — log2 fold change (22Rv1; RNA-seq, item: MFHAS1 mRNA; concentration not given; reference: DMSO): -1.05
CC(C(=O)O)n1nc(Cn2cc3cc(OCC[18F])c(Cl)cc3n2)c2ccccc2c1=O (racemic) — tissue uptake (Sprague-Dawley rat male, pancreas; 30 min): 0.23 ± 0.04 %ID/g
CCCC[C@H](NC(=O)CCCCCCCNC(=O)CN1CCN(CC(=O)O)CCN(CC(=O)O)CC1)C(=O)N[C@H]1CC(=O)NCCCC[C@@H](C(N)=O)NC(=O)[C@H](Cc2c[nH]c3ccccc23)NC(=O)[C@H](CCCNC(=N)N)NC(=O)[C@@H](Cc2ccccc2)NC(=O)[C@H](Cc2c[nH]cn2)NC1=O [technetium-99m labelled] — tissue uptake (C57 mouse, brain; intravenous, 0.037 MBq, 4 h): 0.01 %ID/g
O=C1C2CC3CC1CC(C(=O)N1CCN(c4ccc([N+](=O)[O-])c5ncccc45)CC1)(C3)C2 — mean revertant colonies (Salmonella typhimurium; Ames test; TA100; 0.78 µg/well, with S9): 29 colonies/well
C=CC(=O)Nc1cc(Nc2nccc(-c3c[nH]c4ccccc34)n2)c(OC)cc1N(C)CCN(C)C — recovery (storage stability; human plasma; 5 h, on ice, medium QC level): 90.2%
C=CC(=O)Nc1cccc(Cn2ncc3cnc(Nc4cnn(CCOC)c4)nc32)c1 — percent of control (MKNK1 human; binding, KINOMEscan; 100 nM; lower = stronger binding): 84%
Nc1ncc(-c2cc(-c3cnn(CC(F)(F)F)c3)ncc2F)nc1C(=O)NC1CNCC(F)C1 (centres unmarked) — remaining binding (LIMK1; KINOMEscan; 1 µM; reference: DMSO control): 76%
CN1CCC[C@]1(C)/C=C/S(=O)(=O)NC(=O)Nc1c2c(cc3c1CC(O)C3)CCC2 (some centres unmarked) — Tmax at first steady-state dose (human, plasma; oral, 50 mg twice daily of parent drug, day 14, metabolite of dosed drug): 4 h
O=C(CN1CCN(CC(=O)NCc2ncccc2O)CCN(CC(=O)NCc2ncccc2O)CCN(CC(=O)NCc2ncccc2O)CC1)NCc1ncccc1O.[177Lu+3] — tissue uptake (Sprague-Dawley rat, brain; intravenous (tail vein), dose not given, 2 h): 0.001 ± 0.007 % injected dose/g
CCCC[C@H](NC(=O)CNC(=O)CNC(=O)[C@H](CCCCNC(=O)[C@H](CC(N)=O)NC(=O)C(C)c1ccc(CC(C)C)cc1)NC(=O)CN1CCN(CC(=O)O)CCN(CC(=O)O)CCN(CC(=O)O)CC1)C(=O)N[C@H]1CC(=O)NCCCC[C@@H](C(N)=O)NC(=O)[C@H](Cc2c[nH]c3ccccc23)NC(=O)[C@H](CCCNC(=N)N)NC(=O)[C@@H](Cc2ccccc2)NC(=O)[C@H](Cc2c[nH]cn2)NC1=O (some centres unmarked) [lutetium-177 labelled] — tumour-to-tissue ratio (C57 mice, tumour; 2 h; reference: lung): 17.7

Excerpt of the above:
O=C1C2CC3CC1CC(C(=O)N1CCN(c4ccc([N+](=O)[O-])c5ncccc45)CC1)(C3)C2 — mean revertant colonies (Salmonella typhimurium; Ames test; TA100; 0.78 µg/well, with S9): 29 colonies/well
C=CC(=O)Nc1cc(Nc2nccc(-c3c[nH]c4ccccc34)n2)c(OC)cc1N(C)CCN(C)C — recovery (storage stability; human plasma; 5 h, on ice, medium QC level): 90.2%
C=CC(=O)Nc1cccc(Cn2ncc3cnc(Nc4cnn(CCOC)c4)nc32)c1 — percent of control (MKNK1 human; binding, KINOMEscan; 100 nM; lower = stronger binding): 84%
Nc1ncc(-c2cc(-c3cnn(CC(F)(F)F)c3)ncc2F)nc1C(=O)NC1CNCC(F)C1 (centres unmarked) — remaining binding (LIMK1; KINOMEscan; 1 µM; reference: DMSO control): 76%
